Experimental data collected from several papers.
Parts stem from different laboratories: compare values within a part only.

Set 1
Target: Interferon regulatory factor 5, full length, phosphomimetic (IRF5, Homo sapiens, UniProt Q13568-2, residues 1-514, S451D/S453D/S456D/S462D)
Technique: protein-binding microarray
Form: double-stranded DNA, one strand shown
Sample: in vitro
Concentration: 940 nM top
Setting: 60-bp whole probe
Together with: salmon DNA 0.4 mg/ml
Baseline: random background probes
Direction: higher = stronger binding
Shared flanks, not repeated: GCCTAGCAC … GTCTTGATTCGCTTGACGCTGCTG
Oligonucleotide	fitted relative affinity [z-score]
TTAGGACTGGGGCTCGGTTAGTGCTAG	-0.345
GACGGTTACGGTATCGGGACGTGCTAG	1.76
TTGCCTTTTGCTTTACTGATGTGCTAG	1.08
GACGGTTTCGGGTATCGGAACGTGCTA	9.52
GTCGGACTGCTTCTCCTGACGTGCTAG	0.266
GACGATAACAGTTTCGAGACGTGCTAG	3.83
TCACATTTAATTATATGACTGTGCTAG	0.285
TCAAATTTTTGCATCGTACTGTGCTAG	0.0894
CTTGAACCTGGGAGGTGGAGGTGCTAG	-0.626
GACGATTCCATTTTCGAGACGTGCTAG	1.19
TTAGGTTTCCACTATCGGTTAGTGCTA	1.71
GATATTATATCTGTGTTATTGTGCTAG	-0.0239
GGCGAACTGAGTCTCGAGACGTGCTAG	0.743
CACGGTTTCGGGTTTCGGGACGTGCTA	7.67
TCATTTCTATATTTGCTACTGTGCTAG	1.21
GACGGTATCCGTATCGGGACGTGCTAG	0.938
TTAAATTTCAGTTCCGATTAGTGCTAG	1.69
CTTAGTTTGTATATATTTTAGTGCTAG	0.458
TCATGCCTGTTTTTCCCACTGTGCTAG	0.868
GAAGATATCAGTATCGAGACGTGCTAG	1.68
GACGGTTTCGGGTATGGGGACGTGCTA	8.87

Set 2
Target: Sal-like protein 4, full length isoform B (SALL4, Homo sapiens, UniProt Q9UJQ4-2, residues 1-616)
Technique: universal PBM
Form: double-stranded DNA, one strand shown
Sample: in vitro
Concentration: not given
Setting: 8-mer, flanks averaged, mean of replicates
Direction: higher = stronger binding
Oligonucleotide	E-score
ACCCGCCG	-0.26
AACGCAGT	-0.0883
AATACACT	0.28
AATTACGC	0.141
CAAGCGGG	-0.277
CGCACGTC	-0.134
ACATCTCA	0.155
GTCTGCAC	-0.108
GAAGGAAA	0.011
ACTTGGCT	-0.181
ATTGTGTA	0.199
ACAAGTGG	0.0421
AGCAGGCG	-0.294
GAGGGGCC	-0.39
AGGTTAGC	-0.0794
GAGTCTGC	-0.284
GATCGGGA	-0.227
CAACCTGC	-0.236
GTTGTGAA	0.178
CTGTGTGA	-0.0548
AAGGCCAC	-0.206
ATACACTG	0.154
ATTCCTTA	0.13

Set 3
Target: Histone acetyltransferase KAT6A, both winged helices, GST fusion (KAT6A, Homo sapiens, UniProt Q92794, residues 1-181)
Technique: protein binding microarray
Form: double-stranded DNA, one strand shown
Sample: in vitro
Concentration: not given
Setting: 8-mer, flanks averaged, mean of 2 arrays, mostly near background
Baseline: not given
Direction: higher = stronger binding
Residues (chain): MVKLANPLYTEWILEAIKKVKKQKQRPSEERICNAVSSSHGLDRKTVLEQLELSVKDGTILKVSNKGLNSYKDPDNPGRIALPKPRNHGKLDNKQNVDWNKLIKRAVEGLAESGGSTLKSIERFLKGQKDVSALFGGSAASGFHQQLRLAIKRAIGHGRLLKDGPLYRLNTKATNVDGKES
Oligonucleotide	E-score
GAAACCCA	-0.0391
CTCAGAGC	-0.00566
GCGGACTA	0.198
AATAGCGT	0.178
ACTGCTTG	-0.159
ACAACAAG	-0.142
TCCAACGA	-0.161
CGGAGCCG	0.304
ACGTTATA	-0.0199
CGACTCTC	-0.0436
ATACGGCG	0.335
ACCATGCC	0.0736
AACCTCGT	0.0674
CCGCAGCA	0.0418
ACTGCTAC	-0.169
ATAAACGC	0.149
CATCTAGA	-0.0755
ATTGAGTC	-0.0302
ATGTTTAA	-0.0971
CGAACTCG	0.0106
GCGGGGAC	0.206
ACGTTCGG	0.0955
GCGGAATA	0.203
AGTTATAC	0.00887
GCTTAGAC	0.0755

Set 4
Target: RNA binding protein fox-1 homolog 2, RRM domain, GST-SBP tag (RBFOX2, Homo sapiens, UniProt O43251-10, residues 100-194)
Technique: RNA Bind-n-Seq
Form: RNA
Sample: in vitro
Concentration: 365 nM
Setting: natural RNA segment, single round, ends assumed
Baseline: no-protein control
Direction: higher = stronger binding
Shared flanks, not repeated: GGGAGUUCUACAGUCCGACGAUC … UGGAAUUCUCGGGUGCCAA
Construct (chain): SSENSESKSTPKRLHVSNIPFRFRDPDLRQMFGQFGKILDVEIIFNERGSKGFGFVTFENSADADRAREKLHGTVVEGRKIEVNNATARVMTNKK
Oligonucleotide	RBNS enrichment (R)
GAGGCAUACACUUUUUACAGAUGGACAAAAGCUCUGGAACCCUGUGGCUUCAAAUCCUUUGGGAAGGGUGACUGUUGUUUCCCCUACACACAGUGUAAGCCGGAAUGGGA	0.301
CGUGCCUGGCUGGUGCCAUUCAGACCGAGGCCGAAGGACUUGUGAACAAAAGCACAGAGAUGGCUCAGUGGUUAGGAGCACUGACUCCUUUUCCGUAGGUCCUGAGUUCA	0.35
ACAGCCACUGUCACCGUCUCCUCUAGAGCUCACUUGAGCCAGGCCCCUAGCCAGGCUGUGGCUGUCCCUGGGCAUGCUGCAGUCCUCCUGUCCCUUCUCCCCAGUCAGUA	0.369
AGCACUUAUCCCCCACGCCCGCAGCCACGCCCGUGAAAAGCCCUUCAAGUGCCCAGAGUGCGGCAAGCGCUUCGGCCAGAGCUCAGUUCUGGCCAUCCAUGCCCGCACCC	0.389
GUAAUUGGUUUUUGAGAAACAUUAGUAUAAAGCUUGCCCUUGUUGUGUGGAAGAAGCCAUUUUGUACUGCUUUAAAGUUAGACUAAUAUUCUCAGCACGGGUGUAUGGGG	9.95
AAGGUGAAUAGCACAGGUUAGGGUGUGUGCCACACCCCAUGCACCUCAGGGCCAAGCGGGGGCGUGGCUGGCCUUUCAGGUCCAGGCCAGUGGGCCUGGUAGCACAUGUC	0.59
GGAGUGUCCAUCUUUAGGGAAGAAGCAGACACAGGUGCCUUCAGCUGUCCAGUAUGGAGGAACACUCACCUGGACUUGCAGUUGGACUUUGAACAUCAAGAUCAAAUUAG	0.313
CAGAUUACAGAAAUGUAAGCCAGCGUAAGAGCAGUGGCUGGAUGUAAAGCGCCCAGCAGGAACCACAGGCACUCUGUGCUGUUUGUACUUGAGGUAUGUACCAUUUGUAU	0.487
UACUCUCAGAGAAGCCUUAAAGCAUCCUUUCUUUGACCUUCUGAAGAAAAGUAUAUAGAUCUGUAAUUGGACAGCUCUCUCGAAGAGAUCUUACAGACUGUAUCAGUCUA	0.265
UCCCAUCAGGCUCCUUGGAAAGUGCUUCUACUUCCGAAGCCAACCCUGAGGGGCACUCAGCCAGCUCUGACCAGGACCCUGUGGCAGACAGAGAGGGCAGCCCGGUCUCC	0.378
CUGAGACCUGCAAUGAGACCACCAAGCUUGGGGACUUUGUUCGAUACCAUUACAACUGUUCUUUGCUGGACGGCACCCAGCUGUUCACCUCGCAUGACUACGGGGCCCCC	2.39
AUGUUACUCUAAAGACCCCAGCAACCCAGAGAGAGCCCUGCUUCCAUCUUCCCAGGGCAGGACCACAGUGGUAAAUCCUAAGGAUGGCCCAGGUGGCCUGUGUGAGCGCC	0.364

Set 5
Target: Hepatocyte nuclear factor 3-alpha (Foxa1, Mus musculus, UniProt P35582, residues 1-468, full length assumed)
Technique: EMSA with sequencing
Form: double-stranded DNA, one strand shown
Sample: in vitro
Concentration: 10 and 20 nM
Setting: whole designed probe, mean of two concentrations, ends assumed
Baseline: negative control set to 0
Direction: higher = stronger binding
Shared flanks, not repeated: GTGAGCGGTGCCCATTGATGGGGAAC … TTTCACTGGGATCGTGGGGAC
Residues (chain): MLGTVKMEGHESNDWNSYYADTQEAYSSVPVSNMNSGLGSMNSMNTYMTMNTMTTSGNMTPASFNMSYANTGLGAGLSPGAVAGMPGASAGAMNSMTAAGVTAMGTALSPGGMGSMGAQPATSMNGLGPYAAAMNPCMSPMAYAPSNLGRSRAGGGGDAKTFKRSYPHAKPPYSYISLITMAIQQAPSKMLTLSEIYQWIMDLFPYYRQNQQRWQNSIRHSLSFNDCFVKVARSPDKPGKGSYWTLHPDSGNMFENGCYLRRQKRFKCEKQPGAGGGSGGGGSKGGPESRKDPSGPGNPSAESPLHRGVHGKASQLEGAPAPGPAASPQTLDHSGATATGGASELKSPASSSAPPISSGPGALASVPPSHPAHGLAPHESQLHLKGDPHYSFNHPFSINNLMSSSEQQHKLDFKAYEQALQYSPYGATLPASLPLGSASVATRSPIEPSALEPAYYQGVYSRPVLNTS
Oligonucleotide	normalised bound fraction
ACAATAATTATAATATATGTAAAGGTACTTAGACGTTAATTAAAATTGCTCCATTTGAGTATACACATAAATGTGATAGCCTTTATTATCTCCCTGTTTACATATGAATGGCTTTTTTTCTAGCCCAGTGGACTAATAAATAAATCTCTGTAACTAGTAGGGTTTAGCTATGAAAGTCTGTTGCTAATGCCCC	0.271 ratio
CGTGTCCTACCATGCGGCTTAAGACTTCTCCAAAACACCGTCCCCCCAAATCCAATAAAATTGCAAATTTCACTGTATTTCACAATATCCTAAATAATCTTGAACAGCATGCGTTTCTCTTCCTTGCATCAAATATTAATCTGCCCGTGGCCAGCGCCCGCTCCCCCGCGTGTGTGCGCACGCTGGGTAATCT	-0.0477 ratio
ACTTCCCCACTTCCATGTTGCAATTCCCTTCTCCAATAATGGGAAATTTGGTCTCATTATCCTCAATATGGCTATGTCTTTGCTCAATTTACTTGTTTGCTTAATGTAACCAGCATCCCAACTGCACTGGCTGCCTCTGTCTGCTGCTTCCACACTTTCCTCCTTTTCACTTCCTCAGACTTGGGGCATGCTG	0.305 ratio
ATCTTCCCCCTCTTCCTTGCCCCACCAGCTCACCTTCCCGGGTTATTTGCACAAAGGAAAATAAATAAAGCCGGCATTCGTTAACCCTCTTCTGGCGCAAACTGCTGTTTGCTCTGCATCTAACATGGTCCTTACGCGAGGCGTGGCTCCGGGAGAGCAAAGCACCGTGTCAGGCGCATGATCCGGGGTGGCC	0.374 ratio
ATCTTCCCCCTCTTCCTTGCCCCACCAGCTCACCTTCCCGGGTATATTGGAGATAGTATTTATTTTCAAGCCGGCATTCGTTAACCCTCTTCTGGCGCAAACTGCACATTGGTCTGGATGAATCATGGTCCTTTGGCGACGCCAGGCTCCGGGAGAGCAAAGCACCGTGTCAGGGCCATGATCCGGGGTGGCC	0.115 ratio
TCTTTAATTTGGATGACTCTCCTTAGAGCAGCCAAATCAGCTTCTTGCTGATAACAGTAATCAGGTTTTATACTAAAGTCCCCAGTTAGGCAGAGTAAACAGGAAGCAGCCTGTTATTGATCTGTGTTATGGAAGGTTCTTTTCCACTGAGGAGACTGAATATTTTATACTGAAACCTTTTACTTCCTGTACC	0.103 ratio
ATCTTCCCCCTCTTCCTTGCCCCACCAGCTCACCTACGGGGGTTATTTGCACAAAGGAAAATAAATAAAGCCGGCATTCGTTAACGCAGTTCTGGCGCAAACTGCTGTTTGCTCTGGATGAATCATGGTCCTTTGGCGACGCCAGGCTCCGGGAGAGCAAAGCACCGTGTCAGGGCCATGATCCGGGCTCGCC	0.385 ratio
TCAACTGTGCCATGTTAGCAGGAAAGCTGCCAGACACAATAAGTACTCTAACAGCGTGGCTGTGTTCCAAAAAAACTTAAATTACACACACTTAGATTACACACATAGGTGGCAAGCTGTAATTTTTTTATGTAATTTATGGTATTTTGCCATAGTTTGCTGACTCTTGATACAAATATGGAGACTTTTAAAG	0.205 ratio

For quick reference, copied from above (set 1):
Oligonucleotide	fitted relative affinity [z-score]
GGCGAACTGAGTCTCGAGACGTGCTAG	0.743
CACGGTTTCGGGTTTCGGGACGTGCTA	7.67
TCATTTCTATATTTGCTACTGTGCTAG	1.21
GACGGTATCCGTATCGGGACGTGCTAG	0.938
TTAAATTTCAGTTCCGATTAGTGCTAG	1.69
